{"data": "Experimental data from different studies", "note": "Each numbered part is a random draw from the data of one study; scales do not carry over between parts. Several values in a cell are separate wells, animals, samples, runs or records.", "UniProt P19525, sequence (whole entry, looked up)": "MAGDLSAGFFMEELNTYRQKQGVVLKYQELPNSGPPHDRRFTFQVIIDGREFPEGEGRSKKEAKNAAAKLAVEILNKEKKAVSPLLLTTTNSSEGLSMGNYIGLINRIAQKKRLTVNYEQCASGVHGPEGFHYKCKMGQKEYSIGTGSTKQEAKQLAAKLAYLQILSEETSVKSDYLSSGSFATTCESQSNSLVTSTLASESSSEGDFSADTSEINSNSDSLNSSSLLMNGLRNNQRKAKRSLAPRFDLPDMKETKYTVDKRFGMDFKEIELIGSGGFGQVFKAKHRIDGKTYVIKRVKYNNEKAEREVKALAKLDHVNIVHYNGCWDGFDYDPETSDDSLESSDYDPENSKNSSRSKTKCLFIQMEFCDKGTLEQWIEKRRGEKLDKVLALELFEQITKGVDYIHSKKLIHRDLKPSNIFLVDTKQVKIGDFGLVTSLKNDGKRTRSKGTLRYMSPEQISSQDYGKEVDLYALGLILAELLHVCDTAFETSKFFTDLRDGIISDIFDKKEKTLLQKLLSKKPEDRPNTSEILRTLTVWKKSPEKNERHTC", "UniProt Q6XUX3, sequence (whole entry, looked up)": "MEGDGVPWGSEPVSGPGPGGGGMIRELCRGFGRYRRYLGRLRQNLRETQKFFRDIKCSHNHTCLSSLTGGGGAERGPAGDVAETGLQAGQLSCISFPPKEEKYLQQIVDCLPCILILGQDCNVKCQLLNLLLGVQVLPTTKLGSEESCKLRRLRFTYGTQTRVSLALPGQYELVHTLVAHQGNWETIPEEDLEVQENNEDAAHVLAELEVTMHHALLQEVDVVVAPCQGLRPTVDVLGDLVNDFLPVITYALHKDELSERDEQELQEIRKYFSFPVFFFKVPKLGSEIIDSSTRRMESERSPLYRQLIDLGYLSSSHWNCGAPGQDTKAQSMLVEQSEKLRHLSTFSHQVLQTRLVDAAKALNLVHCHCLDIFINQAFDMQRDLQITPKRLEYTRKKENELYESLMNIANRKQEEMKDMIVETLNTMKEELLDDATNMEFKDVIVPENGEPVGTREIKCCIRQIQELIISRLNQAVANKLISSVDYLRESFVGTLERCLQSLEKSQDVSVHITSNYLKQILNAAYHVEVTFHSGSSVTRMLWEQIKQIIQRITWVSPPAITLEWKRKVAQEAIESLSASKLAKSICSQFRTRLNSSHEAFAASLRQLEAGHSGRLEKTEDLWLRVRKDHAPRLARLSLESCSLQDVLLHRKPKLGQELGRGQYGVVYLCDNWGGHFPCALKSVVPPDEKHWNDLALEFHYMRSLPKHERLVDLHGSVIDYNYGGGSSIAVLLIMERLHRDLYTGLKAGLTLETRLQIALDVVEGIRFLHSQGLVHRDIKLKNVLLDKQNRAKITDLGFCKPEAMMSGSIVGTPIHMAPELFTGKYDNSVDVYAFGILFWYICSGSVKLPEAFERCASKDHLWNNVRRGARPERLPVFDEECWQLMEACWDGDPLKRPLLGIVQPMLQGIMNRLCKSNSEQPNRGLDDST", "UniProt P52564, sequence (whole entry, looked up)": "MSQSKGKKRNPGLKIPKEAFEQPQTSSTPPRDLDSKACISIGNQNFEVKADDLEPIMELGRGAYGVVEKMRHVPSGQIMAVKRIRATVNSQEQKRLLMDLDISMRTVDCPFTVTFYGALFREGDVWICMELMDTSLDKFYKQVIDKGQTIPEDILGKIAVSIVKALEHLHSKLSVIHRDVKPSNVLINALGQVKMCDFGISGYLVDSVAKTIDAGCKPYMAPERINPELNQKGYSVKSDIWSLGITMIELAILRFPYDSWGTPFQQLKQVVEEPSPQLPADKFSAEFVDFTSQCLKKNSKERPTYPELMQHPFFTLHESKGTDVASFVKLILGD", "UniProt Q96Q40, sequence (whole entry, looked up)": "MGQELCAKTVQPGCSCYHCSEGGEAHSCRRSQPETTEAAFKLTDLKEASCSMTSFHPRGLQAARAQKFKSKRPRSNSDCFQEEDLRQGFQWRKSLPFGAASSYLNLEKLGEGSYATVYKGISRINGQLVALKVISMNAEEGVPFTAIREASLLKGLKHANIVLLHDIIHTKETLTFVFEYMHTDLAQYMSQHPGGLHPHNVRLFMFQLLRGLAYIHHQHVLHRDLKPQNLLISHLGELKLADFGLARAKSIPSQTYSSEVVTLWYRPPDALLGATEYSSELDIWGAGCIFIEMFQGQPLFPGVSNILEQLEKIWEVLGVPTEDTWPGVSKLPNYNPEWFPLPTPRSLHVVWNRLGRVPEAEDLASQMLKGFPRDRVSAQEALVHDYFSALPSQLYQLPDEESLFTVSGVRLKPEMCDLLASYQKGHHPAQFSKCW", "UniProt Q9UM73, sequence (whole entry, unmodified, looked up)": "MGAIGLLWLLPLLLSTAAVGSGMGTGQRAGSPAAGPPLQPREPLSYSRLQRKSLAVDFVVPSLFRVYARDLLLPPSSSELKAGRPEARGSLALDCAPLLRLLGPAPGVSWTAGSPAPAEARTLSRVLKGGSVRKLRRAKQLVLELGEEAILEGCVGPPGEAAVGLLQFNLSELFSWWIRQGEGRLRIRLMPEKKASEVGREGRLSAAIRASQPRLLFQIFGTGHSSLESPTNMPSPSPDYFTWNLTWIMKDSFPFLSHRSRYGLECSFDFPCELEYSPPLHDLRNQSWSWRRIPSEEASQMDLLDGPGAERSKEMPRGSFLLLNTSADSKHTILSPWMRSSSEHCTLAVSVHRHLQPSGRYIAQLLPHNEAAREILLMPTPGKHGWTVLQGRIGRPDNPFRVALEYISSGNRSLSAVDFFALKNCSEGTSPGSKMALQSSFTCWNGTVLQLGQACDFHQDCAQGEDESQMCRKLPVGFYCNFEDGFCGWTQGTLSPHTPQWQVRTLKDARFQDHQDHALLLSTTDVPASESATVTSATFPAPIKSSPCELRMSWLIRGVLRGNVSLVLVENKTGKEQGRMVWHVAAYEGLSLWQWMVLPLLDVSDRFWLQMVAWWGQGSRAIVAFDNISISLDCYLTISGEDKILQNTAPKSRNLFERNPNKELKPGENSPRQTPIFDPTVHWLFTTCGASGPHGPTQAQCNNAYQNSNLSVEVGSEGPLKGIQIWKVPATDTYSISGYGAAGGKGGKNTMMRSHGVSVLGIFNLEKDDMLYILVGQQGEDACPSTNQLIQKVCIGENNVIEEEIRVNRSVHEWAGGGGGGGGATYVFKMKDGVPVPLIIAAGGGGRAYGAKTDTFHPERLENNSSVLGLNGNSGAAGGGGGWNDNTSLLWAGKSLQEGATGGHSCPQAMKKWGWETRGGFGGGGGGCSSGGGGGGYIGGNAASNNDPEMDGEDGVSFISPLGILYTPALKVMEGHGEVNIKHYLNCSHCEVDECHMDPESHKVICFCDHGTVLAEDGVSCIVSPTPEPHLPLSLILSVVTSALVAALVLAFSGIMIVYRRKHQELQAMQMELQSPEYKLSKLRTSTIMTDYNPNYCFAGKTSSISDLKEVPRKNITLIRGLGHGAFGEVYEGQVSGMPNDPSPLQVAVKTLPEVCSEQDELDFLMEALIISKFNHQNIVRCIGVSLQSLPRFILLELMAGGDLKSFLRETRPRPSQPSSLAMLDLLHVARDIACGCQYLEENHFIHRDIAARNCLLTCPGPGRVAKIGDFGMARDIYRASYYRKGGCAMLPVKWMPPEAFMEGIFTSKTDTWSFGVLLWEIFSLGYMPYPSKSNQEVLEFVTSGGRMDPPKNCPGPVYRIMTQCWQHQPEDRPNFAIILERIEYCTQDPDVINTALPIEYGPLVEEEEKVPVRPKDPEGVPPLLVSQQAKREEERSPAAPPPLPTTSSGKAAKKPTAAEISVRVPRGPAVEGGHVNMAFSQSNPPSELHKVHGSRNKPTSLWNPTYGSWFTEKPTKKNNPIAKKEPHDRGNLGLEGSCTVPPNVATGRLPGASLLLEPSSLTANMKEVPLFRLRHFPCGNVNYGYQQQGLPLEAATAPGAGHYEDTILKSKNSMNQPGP"}
{"data": "Sample 1", "Structure (SMILES)": "CC(C)(C(=O)O)[C@H](NC(=O)Cc1cccc(I)c1)c1ccc2oc(=O)[nH]c2c1", "technique": "Incucyte 3D growth", "concentration": "30 µM", "direction": "higher = more growth"}
{"cell line": "IPC-298", "time": "252 h", "spheroid area": "3.29e+07 a.u. and 4.3e+07 a.u. and 3e+07 a.u. and 2.6e+07 a.u. and 2.73e+07 a.u. and 3.83e+07 a.u."}
{"cell line": "IPC-298", "time": "96 h", "spheroid area": "3.3e+07 a.u. and 3.03e+07 a.u. and 2.65e+07 a.u. and 2.45e+07 a.u. and 2.6e+07 a.u. and 2.22e+07 a.u."}
{"cell line": "MEL-JUSO", "time": "462.52 h", "spheroid area": "5.5e+07 a.u. and 2.47e+07 a.u. and 2.63e+07 a.u. and 3.59e+07 a.u. and 8.11e+07 a.u. and 2.38e+07 a.u."}
{"cell line": "PC-9", "time": "114 h", "spheroid area": "8.41e+08 a.u. and 8.58e+08 a.u. and 8.51e+08 a.u. and 8.28e+08 a.u. and 8.12e+08 a.u. and 8.5e+08 a.u."}
{"cell line": "IPC-298", "time": "150 h", "spheroid area": "2.87e+07 a.u. and 2.72e+07 a.u. and 3.28e+07 a.u. and 2.44e+07 a.u. and 2.82e+07 a.u. and 3.25e+07 a.u."}
{"cell line": "A375", "time": "54 h", "spheroid area": "1.25e+07 a.u. and 2.96e+07 a.u. and 3.62e+07 a.u. and 1.14e+07 a.u. and 1.41e+07 a.u. and 2.77e+07 a.u."}
{"data": "Sample 2", "SMILES": "COc1ccc2c(O[C@@H]3C[C@H]4C(=O)N[C@]5(C(=O)O)CC5/C=C\\CCCCC[C@H](NC(=O)OC5CCCC5)C(=O)N4C3)cc(-c3csc(NC(=O)C(C)C)n3)nc2c1C (stereo partly drawn)", "technique": "competition with immobilised ligand", "concentration": "1 µM"}
{"target": "Cyclin-dependent kinase 15 (CDK15, Homo sapiens, UniProt Q96Q40)", "read-out": "cell-free assay", "remaining binding": "100%"}
{"target": "Receptor-type tyrosine-protein kinase FLT3 (FLT3, Homo sapiens, UniProt P36888, K663Q)", "read-out": "cell-free assay", "remaining binding": "81%"}
{"target": "Interferon-induced, double-stranded RNA-activated protein kinase (EIF2AK2, Homo sapiens, UniProt P19525)", "read-out": "cell-free assay", "remaining binding": "100%"}
{"target": "Myosin-IIIb (MYO3B, Homo sapiens, UniProt Q8WXR4)", "read-out": "binding", "remaining binding": "68%"}
{"target": "Cyclin-dependent kinase 2 (CDK2, Homo sapiens, UniProt P24941)", "read-out": "cell-free assay", "remaining binding": "99%"}
{"target": "ALK tyrosine kinase receptor (ALK, Homo sapiens, UniProt Q9UM73, C1156Y)", "read-out": "cell-free assay", "remaining binding": "100%"}
{"target": "Serine/threonine-protein kinase ICK (CILK1, Homo sapiens, UniProt Q9UPZ9)", "read-out": "cell-free assay", "remaining binding": "68%"}
{"target": "Tyrosine-protein kinase JAK3, JH1 (JAK3, Homo sapiens, UniProt P52333)", "read-out": "cell-free assay", "remaining binding": "88%"}
{"target": "Epidermal growth factor receptor (EGFR, Homo sapiens, UniProt P00533, A750P/del747-749)", "read-out": "cell-free assay", "remaining binding": "98%"}
{"target": "Tyrosine-protein kinase ABL1, phosphorylated (ABL1, Homo sapiens, UniProt P00519, Y253F)", "read-out": "cell-free assay", "remaining binding": "87%"}
{"target": "Dual serine/threonine and tyrosine protein kinase (DSTYK, Homo sapiens, UniProt Q6XUX3)", "read-out": "cell-free assay", "remaining binding": "68%"}
{"target": "Serine/threonine-protein kinase Nek4 (NEK4, Homo sapiens, UniProt P51957)", "read-out": "cell-free assay", "remaining binding": "93%"}
{"target": "cAMP-dependent protein kinase catalytic subunit PRKX (PRKX, Homo sapiens, UniProt P51817)", "read-out": "cell-free assay", "remaining binding": "86%"}
{"target": "Receptor-type tyrosine-protein kinase FLT3 (FLT3, Homo sapiens, UniProt P36888, D835V)", "read-out": "cell-free assay", "remaining binding": "79%"}
{"target": "Dual specificity mitogen-activated protein kinase kinase 6 (MAP2K6, Homo sapiens, UniProt P52564)", "read-out": "cell-free assay", "remaining binding": "100%"}
{"data": "Sample 3", "cell line": "mouse MPNST tumor cells", "technique": "high-content immunofluorescence imaging", "refers to": "nuclear SOX9", "concentration": "10 µM", "time": "12 h", "notes": "mean of 2 replicates", "relative to": "DMSO control", "direction": "higher = more nuclear SOX9"}
{"Structure (SMILES)": "O=C([C@@H](Cc1cccc(C(F)(F)F)c1)NS(=O)(=O)c1cc(F)c2c(c1)CCNC2)N1CCCC1", "nuclear SOX9 intensity": "122 % of DMSO"}
{"Structure (SMILES)": "CC1CCN(CC[C@H]2CCCN2S(=O)(=O)c2cccc(O)c2)CC1", "nuclear SOX9 intensity": "102 % of DMSO"}
{"Structure (SMILES)": "CC1(CN2CCC(n3c(=O)[nH]c4ccccc43)CC2)OCc2ccccc2-n2cccc21 (stereo not drawn)", "nuclear SOX9 intensity": "122 % of DMSO"}
{"Structure (SMILES)": "O=C1c2ccccc2-c2c(NCCc3ccccc3)c(=O)[nH]c3cccc1c23", "nuclear SOX9 intensity": "285 % of DMSO"}
{"Structure (SMILES)": "Oc1ccc(-c2nc(-c3ccc(F)cc3)c(-c3ccncc3)[nH]2)cc1", "nuclear SOX9 intensity": "195 % of DMSO"}
{"Structure (SMILES)": "CC1(C)O[C@@H]2C[C@H]3[C@@H]4CCC5=CC(=O)C=C[C@]5(C)[C@H]4[C@@H](O)C[C@]3(C)[C@]2(C(=O)CO)O1", "nuclear SOX9 intensity": "74.6 % of DMSO"}
{"Structure (SMILES)": "CC1CCc2c(N3CCC(O)CC3)c(F)cc3c(=O)c(C(=O)O)cn1c23 (stereo not drawn)", "nuclear SOX9 intensity": "95.6 % of DMSO"}
{"Structure (SMILES)": "c1ccc2c(c1)CCC[C@H]2Nc1nc2ccccc2[nH]1", "nuclear SOX9 intensity": "110 % of DMSO"}
{"Structure (SMILES)": "CN1CCN(C2=Nc3ccccc3Oc3ccc(Cl)cc32)CC1", "nuclear SOX9 intensity": "121 % of DMSO"}
{"Structure (SMILES)": "COc1ccc(C2CNC(=O)C2)cc1OC1CCCC1 (stereo not drawn)", "nuclear SOX9 intensity": "88.8 % of DMSO"}
{"Structure (SMILES)": "CCOc1nc2cccc(C(=O)OCc3oc(=O)oc3C)c2n1Cc1ccc(-c2ccccc2-c2noc(=O)[nH]2)cc1", "nuclear SOX9 intensity": "99 % of DMSO"}
{"data": "Sample 4", "SMILES": "C=CCc1ccc(O)c(-c2cc(CC=C)ccc2O)c1", "read-out": "chloride current", "technique": "whole-cell voltage clamp", "ANO1 del476-501/F646A": "Anoctamin-1 (ANO1, Homo sapiens, UniProt Q5XXA6, del476-501/F646A)", "ANO1 del476-501/E649K": "Anoctamin-1 (ANO1, Homo sapiens, UniProt Q5XXA6, del476-501/E649K)", "UniProt Q5XXA6, sequence (whole entry, unmodified, looked up)": "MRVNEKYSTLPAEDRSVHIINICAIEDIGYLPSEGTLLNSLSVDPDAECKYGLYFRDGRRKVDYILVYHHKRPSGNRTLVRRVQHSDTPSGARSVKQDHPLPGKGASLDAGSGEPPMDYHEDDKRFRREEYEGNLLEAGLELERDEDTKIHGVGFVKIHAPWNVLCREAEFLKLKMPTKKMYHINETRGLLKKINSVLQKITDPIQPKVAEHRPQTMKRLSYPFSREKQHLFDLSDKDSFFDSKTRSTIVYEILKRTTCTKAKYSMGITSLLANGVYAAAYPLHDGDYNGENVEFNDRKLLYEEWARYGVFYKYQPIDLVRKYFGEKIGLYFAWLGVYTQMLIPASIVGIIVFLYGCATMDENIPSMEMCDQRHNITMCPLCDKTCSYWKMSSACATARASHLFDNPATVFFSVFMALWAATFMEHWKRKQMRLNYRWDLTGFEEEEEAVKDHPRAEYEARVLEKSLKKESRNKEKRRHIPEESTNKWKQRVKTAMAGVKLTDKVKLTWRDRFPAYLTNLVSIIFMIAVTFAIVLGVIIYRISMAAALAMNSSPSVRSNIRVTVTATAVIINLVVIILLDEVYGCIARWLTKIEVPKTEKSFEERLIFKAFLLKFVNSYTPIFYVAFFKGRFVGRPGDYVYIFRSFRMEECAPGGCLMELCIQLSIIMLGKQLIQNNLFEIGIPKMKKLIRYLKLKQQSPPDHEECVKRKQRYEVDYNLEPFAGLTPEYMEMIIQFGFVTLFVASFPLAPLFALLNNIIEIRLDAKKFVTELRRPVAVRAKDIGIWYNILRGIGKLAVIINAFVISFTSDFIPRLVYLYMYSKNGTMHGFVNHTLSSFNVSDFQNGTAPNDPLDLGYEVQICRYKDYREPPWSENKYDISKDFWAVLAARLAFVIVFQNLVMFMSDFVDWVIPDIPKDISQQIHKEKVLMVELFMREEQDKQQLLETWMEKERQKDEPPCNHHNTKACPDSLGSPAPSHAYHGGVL"}
{"target": "Anoctamin-1 (ANO1, Homo sapiens, UniProt Q5XXA6, del476-501/F807A)", "notes": "membrane voltage 100 mV", "IC50 [µM]": 21.3}
{"target": "ANO1 del476-501/F646A", "notes": "membrane voltage -60 mV", "IC50 [µM]": 21}
{"target": "ANO1 del476-501/E649K", "mode": "inhibitor", "notes": "E623K mutant at -80 mV", "IC50 [µM]": 185}
{"target": "ANO1 del476-501/E649K", "mode": "inhibitor", "notes": "E623K mutant at 60 mV", "IC50 [µM]": 117}
{"target": "ANO1 del476-501/F646A", "notes": "membrane voltage -100 mV", "IC50 [µM]": 29.7}
{"target": "Anoctamin-1 (ANO1, Homo sapiens, UniProt Q5XXA6, del476-501/R541I)", "mode": "inhibitor", "notes": "mutant R515I", "IC50 [µM]": 134}
{"target": "Anoctamin-1 (ANO1, Homo sapiens, UniProt Q5XXA6, del476-501/E650A)", "notes": "membrane voltage -80 mV", "IC50 [µM]": 29.3}
{"target": "Anoctamin-1 (ANO1, Homo sapiens, UniProt Q5XXA6, del476-501/F623A)", "mode": "inhibitor", "notes": "mutant F597A at 100 mV", "added": "300 nM Ca2+", "IC50 [µM]": 25.4}
{"target": "Anoctamin-1 (ANO1, Homo sapiens, UniProt Q5XXA6, del476-501/R541D)", "mode": "inhibitor", "notes": "R515D mutant at 100 mV", "IC50 [µM]": 187}
{"target": "Anoctamin-1 (ANO1, Homo sapiens, UniProt Q5XXA6, del476-501/F627A)", "notes": "membrane voltage -60 mV", "IC50 [µM]": 28.1}
{"note": "Some of these lines once more (sample 1):"}
{"cell line": "IPC-298", "time": "252 h", "spheroid area": "3.29e+07 a.u. and 4.3e+07 a.u. and 3e+07 a.u. and 2.6e+07 a.u. and 2.73e+07 a.u. and 3.83e+07 a.u."}
{"cell line": "IPC-298", "time": "96 h", "spheroid area": "3.3e+07 a.u. and 3.03e+07 a.u. and 2.65e+07 a.u. and 2.45e+07 a.u. and 2.6e+07 a.u. and 2.22e+07 a.u."}
{"cell line": "MEL-JUSO", "time": "462.52 h", "spheroid area": "5.5e+07 a.u. and 2.47e+07 a.u. and 2.63e+07 a.u. and 3.59e+07 a.u. and 8.11e+07 a.u. and 2.38e+07 a.u."}
{"cell line": "PC-9", "time": "114 h", "spheroid area": "8.41e+08 a.u. and 8.58e+08 a.u. and 8.51e+08 a.u. and 8.28e+08 a.u. and 8.12e+08 a.u. and 8.5e+08 a.u."}
{"cell line": "IPC-298", "time": "150 h", "spheroid area": "2.87e+07 a.u. and 2.72e+07 a.u. and 3.28e+07 a.u. and 2.44e+07 a.u. and 2.82e+07 a.u. and 3.25e+07 a.u."}
